{"data": "Assay results of several laboratories", "note": "Each line is one published result; not all experiments were run side by side. ± gives the spread as reported."}
{"SMILES": "COC(=O)[C@H]1[C@@H](c2ccc(Cl)c(Cl)c2)C[C@@H]2CC[C@H]1N2Cc1c2ccccc2cc2ccccc12", "assay": "fluorometric titration", "conditions": "1 µM, 10% DMSO", "quantity": "pKa", "value": 4.8}
{"SMILES": "CC(C)C[C@@H](NC(=O)[C@@H](CCCNC(=N)N)NC(=O)[C@@H](Cc1c[nH]cn1)NC(=O)[C@@H](Cc1c[nH]c2ccccc12)NC(=O)[C@@H](Cc1c[nH]cn1)NC(=O)[C@@H](Cc1ccccc1)NC(=O)[C@H](NC(=O)[C@@H](Cc1ccc(O)cc1)NC(=O)CNC(=O)CNC(=O)CCOCCOCCOCCNC(=O)CN1CCN(CC(=O)O)CCN(CC(=O)O)CC1)[C@H](C)O)C(=O)N[C@H](CC(N)=O)C(=O)N1CCC[C@@H]1C(=O)O [gallium-68 labelled]", "assay": "gamma counting", "test system": "C57BL/6 mice, male, intestines", "conditions": "intravenous, 1.85 MBq, 60 min", "quantity": "tissue uptake", "value": "1.06 ± 0.31 %ID/g"}
{"SMILES": "CC[C@H](C)[C@H](NC(=O)[C@H](CCCCN)NC(=O)CNC(=O)[C@H](CC(C)C)NC(=O)[C@H](Cc1ccccc1)NC(=O)[C@H](CCCCN)NC(=O)[C@H](CO)NC(=O)[C@H](Cc1ccccc1)NC(=O)[C@H](Cc1c[nH]c2ccccc12)NC(=O)[C@H](CCC(N)=O)NC(=O)[C@@H](NC(=O)[C@H](Cc1ccccc1)NC(=O)CCCCCNC(=O)CN1CCN(CC(=O)O)CCN(CC(=O)O)CCN(CC(=O)O)CC1)C(C)C)C(=O)N[C@@H](CCC(=O)O)C(=O)N1CCC[C@H]1C(=O)N[C@@H](CC(=O)O)C(=O)N[C@H](C(=O)N[C@@H](CO)C(=O)N[C@@H](CCC(N)=O)C(=O)N[C@H](C(=O)N[C@@H](CCC(N)=O)C(=O)N[C@@H](CC(=O)O)C(=O)N1CCC[C@H]1C(=O)N[C@@H](CC(N)=O)C(=O)N[C@@H](CC(=O)O)C(=O)N[C@@H](CCC(N)=O)C(=O)N[C@@H](Cc1ccc(O)cc1)C(=O)N[C@@H](CCC(=O)O)C(=O)N1CCC[C@H]1C(=O)N[C@@H](Cc1ccccc1)C(=O)O)C(C)C)C(C)C [copper-64 labelled]", "assay": "dynamic PET", "test system": "mouse, CT26 tumour, untreated, tumour", "conditions": "intravenous, 100 µCi/mouse, 2340 s", "quantity": "SUVmean", "value": "1.11 SUV"}
{"SMILES": "CC(C)=CCC/C(C)=C\\CCn1cc(CC(P(=O)(O)O)P(=O)(O)O)nn1", "test system": "CD-1 mouse, plasma", "conditions": "intravenous, 0.5 mg/kg, single dose", "quantity": "clearance", "value": "15.7 mL/min/kg"}
{"SMILES": "CCN(CC)CCOc1ccc(-c2nnn(Cc3ccc(OC)cc3)c2N)cc1", "test system": "human hepatocytes", "conditions": "concentration not given, time not given", "quantity": "remaining compound", "value": "68.7%"}
{"SMILES": "[2H]C([2H])([18F])[C@]([2H])(N)C(=O)O", "assay": "PET", "test system": "athymic nude mouse", "conditions": "90 min", "quantity": "maximum bone uptake", "value": "~26%"}
{"SMILES": "N#[11C]c1ccc(-c2csc(NN=C3CCCC3)n2)cc1", "test system": "C57BL/6 mice, male, spleen", "conditions": "intravenous, 3 MBq, 1 min", "quantity": "radioactivity uptake", "value": "2.93 ± 0.66 %ID/g"}
{"SMILES": "CC(C)C[C@H](NC(=O)[C@H](Cc1ccc(O)cc1)NC(=O)[C@H](C)NC(=O)[C@H](CC(N)=O)NC(=O)[C@H](CC(C)C)NC(=O)[C@H](C)NC(=O)[C@@H](NC(=O)[C@H](CCCCN)NC(=O)CNC(=O)[C@@H](NC(=O)[C@H](CC(N)=O)NC(=O)[C@H](CCCCN)NC(=O)CNC(=O)[C@@H](NC(=O)[C@H](Cc1c[nH]cn1)NC(=O)[C@H](C)NC(=O)[C@H](C)NC(=O)[C@H](CCCCN)NC(=O)[C@H](CCCCN)NC(=O)[C@H](Cc1ccccc1)NC(=O)[C@H](Cc1c[nH]c2ccccc12)NC(=O)[C@H](CCCCN)NC(=O)[C@H](CCCCN)NC(=O)[C@H](CS)NC(=O)CN)C(C)C)C(C)C)C(C)C)C(N)=O", "test system": "zebrafish embryos 28 hpf, E3 medium", "conditions": "24 h", "quantity": "chronic toxic concentration", "value": "5 µM"}
{"SMILES": "CCCCCCCCCCCCCCCC(=O)N[C@@H](CCC(=O)NCCCC[C@H](NC(=O)[C@H](CC(=O)O)NC(=O)[C@H](CO)NC(=O)[C@@H](NC(=O)[C@H](Cc1ccccc1)NC(=O)[C@@H](NC(=O)CNC(=O)[C@H](CCC(N)=O)NC(=O)[C@H](C)NC(=O)[C@@H](Cc1ccc(O)cc1)NC(C)=O)[C@@H](C)O)[C@@H](C)O)C(=O)N[C@@H](CO)C(=O)N[C@@H](CCCCN)C(=O)N[C@@H](Cc1ccc(O)cc1)C(=O)N[C@@H](CC(C)C)C(=O)N[C@@H](CC(=O)O)C(=O)N[C@@H](CCC(=O)O)C(=O)N[C@@H](CCCNC(=N)N)C(=O)N[C@@H](C)C(=O)N[C@@H](C)C(=O)N[C@@H](CCC(N)=O)C(=O)N[C@@H](CC(=O)O)C(=O)N[C@@H](Cc1ccccc1)C(=O)N[C@H](C(=O)N[C@@H](CCC(N)=O)C(=O)N[C@@H](Cc1c[nH]c2ccccc12)C(=O)N[C@@H](CC(C)C)C(=O)N[C@@H](CC(C)C)C(=O)N[C@@H](CCC(=O)O)C(=O)NCC(=O)NCC(=O)N1CCC[C@H]1C(=O)N[C@@H](CO)C(=O)N[C@@H](CO)C(=O)NCC(=O)N[C@@H](C)C(=O)N1CCC[C@H]1C(=O)N1CCC[C@H]1C(=O)N1CCC[C@H]1C(=O)N[C@@H](CO)C(N)=O)C(C)C)C(=O)O", "test system": "male cynomolgus monkey, plasma", "conditions": "subcutaneous, 0.0161 mg/kg", "quantity": "Cmax", "value": "120 ng/mL"}
{"SMILES": "CCCCCCCCCCCC(=O)C(C)C(=O)N1CCC[C@H]1C(=O)NC(C)(C)C(=O)NC(C)(C)C(=O)NC(C)(C)C(=O)N[C@](C)(CC)C(=O)NCCC(=O)N[C@@H](C)C(=O)N[C@](C)(CC)C(=O)N[C@@H](C)C(=O)N[C@@H](CC(C)C)C(=O)N[C@](C)(CC)C(=O)NCCC(=O)N[C@@H](C)C(=O)N[C@](C)(CC)C(=O)NCCC(=O)N[C@@H](C)C(=O)NC(C)(C)C(=O)NC(C)(C)C(=O)NC(C)(C)C(=O)N[C@@H](C)C(=O)N[C@@H](CC(=O)O)C(=O)O (stereo partly shown)", "assay": "LC-MS", "test system": "50% pooled human serum in Tris-HCl buffer", "conditions": "40 µM, 2 h, pH 7.5, 37 °C", "how to read": "relative to: 0 h value", "quantity": "remaining intact peptide", "value": "42.7%"}
{"SMILES": "O=C1NC2(CC2)COc2ncc(F)cc2[C@H]2COCCN2c2ccn3ncc1c3n2", "test system": "Sprague-Dawley rat, female, serum", "conditions": "oral, 5 mg/kg/day, 4 weeks daily, end of treatment", "quantity": "creatinine", "value": "34.4 ± 4.7 µmol/L"}
{"SMILES": "NC1CCN(C(=O)Oc2ccc(C3CCCC4(C3)OOC3(O4)C4CC5CC(C4)CC3C5)cc2)CC1 (racemic)", "test system": "male Sprague-Dawley rat, plasma", "conditions": "intravenous, 10 mg/kg", "quantity": "AUC(0-inf)", "value": "2910 ng·h/mL"}
{"SMILES": "N=C(N)NCCC[C@H](NC(=O)[C@H](CCCNC(=N)N)NC(=O)[C@H](CCCNC(=N)N)NC(=O)[C@H](CCC(N)=O)NC(=O)[C@H](CCCNC(=N)N)NC(=O)[C@H](CCCNC(=N)N)NC(=O)[C@H](CCCCN)NC(=O)[C@H](CCCCN)NC(=O)[C@H](CCCNC(=N)N)NC(=O)CNC(=O)[C@H](Cc1ccc(O)cc1)NC(=O)[C@H](Cc1ccccc1)NC(=O)[C@H](Cc1ccccc1)NC(=O)[C@H](Cc1ccccc1)NC(=O)Cc1ccc2ccccc2c1)C(=O)O", "test system": "C57BL/6 mice", "conditions": "intraperitoneal, 20 mg/kg, 0.5 h", "how to read": "direction not given", "quantity": "health score", "value": "4.5 ± 0.55"}
{"note": "A few entries again:"}
{"SMILES": "CCCCCCCCCCCC(=O)C(C)C(=O)N1CCC[C@H]1C(=O)NC(C)(C)C(=O)NC(C)(C)C(=O)NC(C)(C)C(=O)N[C@](C)(CC)C(=O)NCCC(=O)N[C@@H](C)C(=O)N[C@](C)(CC)C(=O)N[C@@H](C)C(=O)N[C@@H](CC(C)C)C(=O)N[C@](C)(CC)C(=O)NCCC(=O)N[C@@H](C)C(=O)N[C@](C)(CC)C(=O)NCCC(=O)N[C@@H](C)C(=O)NC(C)(C)C(=O)NC(C)(C)C(=O)NC(C)(C)C(=O)N[C@@H](C)C(=O)N[C@@H](CC(=O)O)C(=O)O (stereo partly shown)", "assay": "LC-MS", "test system": "50% pooled human serum in Tris-HCl buffer", "conditions": "40 µM, 2 h, pH 7.5, 37 °C", "how to read": "relative to: 0 h value", "quantity": "remaining intact peptide", "value": "42.7%"}
